Experimental data of several laboratories.
Each numbered part is a random draw from the data of one study; scales do not carry over between parts. “And” joins repeats or separate records; there may be more than shown.

Set 1
SMILES: Cn1cc(-c2cccc(CN3CCC4(CC3)COc3c4ccc4c3CN([C@H]3CCC(=O)NC3=O)C4=O)c2)cn1
Species: Crbn I391V mouse, MC-38 tumour
Quantity: body weight change
30 mg/kg, day 36, with: anti-LAG3 antibody 10 mg/kg weekly: 4.9% and -1.4% and 5.3%
oral, daily, 30 mg/kg, day 12, anti-PD1 combination study: -0.3% and -1.3% and 2% and 3.2% and 3%
oral, 30 mg/kg once daily, day 7: 4.4% and -2.5% and -6.1% and 12.4% and -2%
30 mg/kg, day 8, with: anti-LAG3 antibody 10 mg/kg weekly: -4.9% and -5.1% and -12.4% and 6.6% and -1.8%
30 mg/kg, day 32, with: anti-LAG3 antibody 10 mg/kg weekly: -0.7% and 7% and 7.4%

Set 2
Target: Cyclin-dependent kinase 12, with cyclin K (CDK12, Homo sapiens, UniProt Q9NYV4)
Sequence of UniProt Q9NYV4 (whole entry, looked up): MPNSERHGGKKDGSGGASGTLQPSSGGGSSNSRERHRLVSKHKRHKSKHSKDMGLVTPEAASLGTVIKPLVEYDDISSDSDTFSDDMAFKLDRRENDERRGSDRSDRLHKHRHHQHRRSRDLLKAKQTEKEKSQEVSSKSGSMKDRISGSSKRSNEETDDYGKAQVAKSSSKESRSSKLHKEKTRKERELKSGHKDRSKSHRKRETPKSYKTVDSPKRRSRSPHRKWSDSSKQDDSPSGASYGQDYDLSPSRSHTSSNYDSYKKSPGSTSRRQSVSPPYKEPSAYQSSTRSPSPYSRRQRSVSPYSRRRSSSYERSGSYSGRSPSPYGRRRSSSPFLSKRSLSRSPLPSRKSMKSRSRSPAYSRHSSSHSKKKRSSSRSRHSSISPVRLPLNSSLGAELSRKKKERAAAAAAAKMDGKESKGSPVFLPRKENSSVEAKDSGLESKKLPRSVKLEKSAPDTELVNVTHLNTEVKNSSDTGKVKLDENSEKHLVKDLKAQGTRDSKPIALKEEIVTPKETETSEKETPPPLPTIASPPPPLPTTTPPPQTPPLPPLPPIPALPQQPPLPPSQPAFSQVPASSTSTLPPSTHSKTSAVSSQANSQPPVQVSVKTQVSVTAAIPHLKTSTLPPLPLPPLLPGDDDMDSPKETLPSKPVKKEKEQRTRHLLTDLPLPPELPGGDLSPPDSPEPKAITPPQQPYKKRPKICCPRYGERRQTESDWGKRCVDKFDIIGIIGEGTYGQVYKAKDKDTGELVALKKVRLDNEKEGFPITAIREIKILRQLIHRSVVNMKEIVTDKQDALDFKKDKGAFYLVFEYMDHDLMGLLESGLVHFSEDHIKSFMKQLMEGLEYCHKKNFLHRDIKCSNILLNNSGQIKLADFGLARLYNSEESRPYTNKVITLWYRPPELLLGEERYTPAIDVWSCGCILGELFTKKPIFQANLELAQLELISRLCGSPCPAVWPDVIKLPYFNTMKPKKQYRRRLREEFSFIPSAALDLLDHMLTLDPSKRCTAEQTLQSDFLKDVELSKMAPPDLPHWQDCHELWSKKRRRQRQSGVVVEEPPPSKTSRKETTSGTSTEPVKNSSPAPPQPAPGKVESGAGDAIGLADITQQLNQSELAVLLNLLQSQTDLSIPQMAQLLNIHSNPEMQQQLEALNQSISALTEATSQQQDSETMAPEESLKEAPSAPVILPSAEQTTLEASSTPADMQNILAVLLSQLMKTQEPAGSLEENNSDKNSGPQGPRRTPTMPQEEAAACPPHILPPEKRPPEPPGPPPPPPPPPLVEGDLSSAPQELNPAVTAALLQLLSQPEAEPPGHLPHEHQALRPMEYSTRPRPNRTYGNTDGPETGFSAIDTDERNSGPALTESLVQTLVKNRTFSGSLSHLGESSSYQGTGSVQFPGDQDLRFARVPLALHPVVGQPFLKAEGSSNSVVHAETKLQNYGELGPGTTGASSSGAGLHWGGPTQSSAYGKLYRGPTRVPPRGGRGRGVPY
Effect on: kinase activity
Action: inhibitor
Method: ADP-Glo
Concentration: 0.2222 µM
Quantity: inhibition
CCn1cnc2c(NCc3nc4cc(Cl)c(Cl)cc4[nH]3)nc(N3CCN(C(=O)[C@H](C)NC(C)=O)CC3)nc21: 40.9%
Cn1cc(-n2cnc3c(NCc4nc5cc(Cl)c(Cl)cc5[nH]4)nc(N4CCNCC4)nc32)cn1: 24.8%
CCn1cnc2c(NCc3nc4cc(Cl)c(Cl)cc4[nH]3)nc(N3CCN(C(=O)c4cccnc4)CC3)nc21: 61.8%
CCn1cnc2c(NCc3nc4ccc(F)c(F)c4[nH]3)nc(N3CCn4ncnc4C3)nc21: 56%
CCn1cnc2c(NCc3nc4cc(Cl)c(Cl)cc4[nH]3)nc(N3CCn4ncnc4C3)nc21: 79.4%
CCn1cnc2c(NCc3nc4cc(Cl)c(Cl)cc4[nH]3)nc(N3CCC(NC(C)=O)CC3)nc21: 52.8%
CCn1cnc2c(NCc3nc4cc(Cl)c(Cl)cc4[nH]3)nc(N3CCN(c4ccccn4)CC3)nc21: 51.8%
CC(=O)N1CCN(c2nc(NCc3nc4cc(Cl)c(Cl)cc4[nH]3)c3ncn(-c4cnn(C)c4)c3n2)CC1: 58%

Set 3
SMILES: CN1C(=O)C(O)(C(=O)O)Oc2cc(F)ccc21 (centres unmarked)
Organism: Arabidopsis thaliana
Strain: Col-0
Quantity: hypocotyl length
50 µg/mL, seed germination, single repetition: 1.68 cm and 1.71 cm and 1.78 cm and 1.77 cm and 1.87 cm
3.125 µg/mL, seed germination, repetition mean: 2.24 cm
12.5 µg/mL, seed germination, repetition mean: 1.97 cm
25 µg/mL, seed germination, repetition mean: 1.83 cm
12.5 µg/mL, seed germination, single repetition: 2.05 cm and 2.11 cm and 1.93 cm and 1.95 cm and 1.9 cm
3.125 µg/mL, seed germination, single repetition: 2.34 cm and 2.32 cm and 2.2 cm and 2.33 cm and 2.24 cm
25 µg/mL, seed germination, single repetition: 1.85 cm and 1.78 cm and 1.75 cm
50 µg/mL, seed germination, repetition mean: 1.73 cm

Set 4
SMILES: COCCCCCCC1CC2C(CCC3(C)C(O)CCC23)c2ccc(O)cc21 (centres unmarked)
Method: microarray
Reference: untreated
Quantity: log2 fold change
PANC-1; refers to: GADD45A; 50 µM: 2.78
A549; refers to: ISG20L1; 50 µM: 1.14
PANC-1; refers to: ACTA2; 50 µM: -0.361
A549; refers to: ADAMTS14; 10 µM: 0.0489
SK-OV-3; refers to: ADAMTS8; 50 µM: 0
PANC-1; refers to: UBB; 50 µM: -0.489
A549; refers to: ACTA2; 10 µM: 0.197
SK-OV-3; refers to: ADAMTS8; 10 µM: -0.654

For quick reference, copied from above (set 1):
30 mg/kg, day 36, with: anti-LAG3 antibody 10 mg/kg weekly: 4.9% and -1.4% and 5.3%
oral, 30 mg/kg once daily, day 7: 4.4% and -2.5% and -6.1% and 12.4% and -2%
30 mg/kg, day 32, with: anti-LAG3 antibody 10 mg/kg weekly: -0.7% and 7% and 7.4%
oral, daily, 30 mg/kg, day 12, anti-PD1 combination study: -0.3% and -1.3% and 2% and 3.2% and 3%
